Assay results collected from several papers.
Lines come from different studies, so protocols differ.
riboswitch RNA SAM-I metF-H2: riboswitch RNA SAM-I metF-H2 (Thermoanaerobacter tengcongensis)
T1: riboswitch RNA, extra G-C pair, UUCG loop; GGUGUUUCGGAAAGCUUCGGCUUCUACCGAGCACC
T2: riboswitch RNA (Pseudomonas aeruginosa); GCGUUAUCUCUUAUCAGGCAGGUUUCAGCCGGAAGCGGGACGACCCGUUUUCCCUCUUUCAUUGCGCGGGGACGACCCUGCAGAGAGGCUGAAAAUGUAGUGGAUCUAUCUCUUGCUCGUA
T3: riboswitch RNA (Mesoplasma florum); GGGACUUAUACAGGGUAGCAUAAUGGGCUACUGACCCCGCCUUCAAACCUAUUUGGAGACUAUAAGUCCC
T4: riboswitch RNA (Paenibacillus durus); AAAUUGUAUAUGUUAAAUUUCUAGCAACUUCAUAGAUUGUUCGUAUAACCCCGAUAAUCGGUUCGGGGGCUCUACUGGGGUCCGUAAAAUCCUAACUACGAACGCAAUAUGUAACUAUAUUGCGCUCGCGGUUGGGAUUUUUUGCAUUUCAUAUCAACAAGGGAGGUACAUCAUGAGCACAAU
T5: riboswitch RNA SAM-I metF-H2 (Thermoanaerobacter tengcongensis); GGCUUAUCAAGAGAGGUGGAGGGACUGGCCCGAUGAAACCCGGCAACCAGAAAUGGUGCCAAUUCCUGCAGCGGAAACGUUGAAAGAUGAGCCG
T6: riboswitch RNA U39C (Bacillus); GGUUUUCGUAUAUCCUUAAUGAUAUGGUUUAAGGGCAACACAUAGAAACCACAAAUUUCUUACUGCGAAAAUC
T7: riboswitch RNA SAM-I metF-H2 (Thermoanaerobacter tengcongensis); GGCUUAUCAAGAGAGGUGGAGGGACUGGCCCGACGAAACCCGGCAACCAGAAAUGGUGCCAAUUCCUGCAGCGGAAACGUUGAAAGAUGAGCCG
T8: riboswitch RNA U11A (Bacillus); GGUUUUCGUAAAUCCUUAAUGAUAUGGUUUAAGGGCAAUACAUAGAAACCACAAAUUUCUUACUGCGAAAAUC

Compound | target | assay | setting | binding
NC[C@H]1O[C@H](O[C@H]2[C@H](O)[C@@H](O[C@H]3O[C@H](CO)[C@@H](O)[C@H](N)[C@H]3O)[C@H](N)C[C@@H]2N)[C@H](N)C[C@@H]1O | T1, riboswitch RNA, extra G-C pair, UUCG loop | solution NMR |  | binds
N=C(N)N | T2, riboswitch RNA (Pseudomonas aeruginosa) | sequencing |  | binds
c1c[nH]cn1 | T3, riboswitch RNA (Mesoplasma florum) | NMR |  | no binding
O=c1[nH]c(=O)c2[nH]cnc2[nH]1 | T4, riboswitch RNA (Paenibacillus durus) | transcription termination, function, single-round transcription termination | added: RNA polymerase | no binding
C[S+](CC[C@H](N)C(=O)O)C[C@H]1O[C@@H](n2cnc3c(N)ncnc32)[C@H](O)[C@@H]1O (stereo partly drawn) | T5, riboswitch RNA SAM-I metF-H2 (Thermoanaerobacter tengcongensis) | ITC | apparent | binds
O=c1[nH]cnc2c1ncn2[C@@H]1O[C@H](CO)[C@@H](O)[C@H]1O | T3, riboswitch RNA (Mesoplasma florum) | NMR |  | no binding
Nc1nc2[nH]cnc2c(=O)[nH]1 | T6, riboswitch RNA U39C (Bacillus) | ITC | KCl 50 mM | no binding
Nc1nc2c(ncn2[C@@H]2O[C@H](COP(=O)(O)OP(=O)(O)OP(=O)(O)O)[C@@H](O)[C@H]2O)c(=O)[nH]1 | T3, riboswitch RNA (Mesoplasma florum) | NMR |  | no binding
Nc1ncnc2c1ncn2[C@@H]1O[C@H](CSCC[C@H](N)C(=O)O)[C@@H](O)[C@H]1O | T7, riboswitch RNA SAM-I metF-H2 (Thermoanaerobacter tengcongensis) | X-ray crystallography | added: Mg2+, K+ | binds
NC[C@H]1O[C@H](O[C@H]2[C@H](O)[C@@H](O[C@H]3O[C@H](CO)[C@@H](O)[C@H](N)[C@H]3O)[C@H](N)C[C@@H]2N)[C@H](N)[C@@H](O)[C@@H]1O | T1, riboswitch RNA, extra G-C pair, UUCG loop | 1H,15N-HSQC NMR | pH 6.2, 283 K | binds
Nc1nc2c(ncn2[C@H]2C[C@H](O)[C@@H](CO)O2)c(=O)[nH]1 | T8, riboswitch RNA U11A (Bacillus) | ITC | KCl 50 mM | no binding
O=c1[nH]cnc2nc[nH]c12 | T3, riboswitch RNA (Mesoplasma florum) | NMR |  | no binding

A few entries again:
Compound | target | assay | setting | binding
O=c1[nH]c(=O)c2[nH]cnc2[nH]1 | T4, riboswitch RNA (Paenibacillus durus) | transcription termination, function, single-round transcription termination | added: RNA polymerase | no binding
